Assay results collected from several papers.
Every numbered part comes from another study and shows a few of its results, in no order.

Block 1
Target: Replicase polyprotein 1ab, nsp13 helicase (rep, Severe acute respiratory syndrome coronavirus 2, UniProt P0DTD1)
Action: inhibitor
Tested at: 20 µM
Measurement: inhibition
COc1cc(SC)ccc1C(=O)N1CCC(Cc2ccccc2)CC1: 3.99%
Cn1cc(/C=C/C(=O)c2cccc(F)c2)cc1/C=C/C(=O)NO: 0.68%
O=C(O)c1nn(Cc2ccc(Cl)cc2Cl)c2ccccc12: 12.9%
C=C1C(=O)[C@]23[C@H](O)[C@H]1CC[C@H]2[C@@]12CO[C@]3(O)[C@@H](O)[C@@H]1C(C)(C)CC[C@@H]2O: 60.9%
CC1(C)CC(Oc2ccc(-c3ccc(-c4cn[nH]c4)cc3O)nn2)CC(C)(C)N1: 4.14%
Cc1c(OCC(F)(F)F)ccnc1C[S+]([O-])c1nc2ccccc2[nH]1 (stereo not shown): 3.92%
CN1C(CSCC(F)(F)F)Nc2cc(Cl)c(S(N)(=O)=O)cc2S1(=O)=O (stereo not shown): 1.21%
O=C(Nc1ccc2c(O)cc(S(=O)(=O)O)cc2c1)Nc1ccc2c(O)cc(S(=O)(=O)O)cc2c1: 84.8%
C[C@@]1(CO)[C@H](O)CC[C@@]2(C)[C@H]1CC[C@H]1C[C@@H]3C[C@@]12CC[C@]3(O)CO: 0.47%
C[C@@H]1CC[C@@]2(OC1)O[C@H]1C[C@H]3[C@@H]4CC=C5C[C@@H](O)CC[C@]5(C)[C@H]4CC[C@]3(C)[C@H]1[C@@H]2C: 2.68%
N#Cc1cn([C@@H]2O[C@H](CO)[C@@H](O)[C@H]2O)c2ncnc(N)c12: 1.46%
NCC(=O)N[C@@H](CCC(N)=O)C(=O)O: 6.05%
Cc1cc(C(=O)NOCCO)c(Nc2ccc(I)cc2F)n(C)c1=O: 8.56%
Cc1cccc(C)c1OCC(=O)N[C@@H](Cc1ccccc1)[C@@H](O)C[C@H](Cc1ccccc1)NC(=O)[C@H](C(C)C)N1CCCNC1=O: 10.8%
C[C@H](NCc1ccc(OCc2cccc(F)c2)cc1)C(N)=O: -2.01%
CCOCCn1c(N2CCCN(C)CC2)nc2ccccc21: -1.7%
Cc1cc(C)c(S(=O)(=O)Nc2ccccc2C(F)(F)F)c(C)c1: 9.08%

Block 2
Target: Interferon regulatory factor 3, full length, phosphomimetic (IRF3, Homo sapiens, UniProt Q14653, residues 1-427, S386D/S396D/S398D/S402D/T404D/S405D)
Chain of UniProt Q14653 (whole entry, unmodified, looked up): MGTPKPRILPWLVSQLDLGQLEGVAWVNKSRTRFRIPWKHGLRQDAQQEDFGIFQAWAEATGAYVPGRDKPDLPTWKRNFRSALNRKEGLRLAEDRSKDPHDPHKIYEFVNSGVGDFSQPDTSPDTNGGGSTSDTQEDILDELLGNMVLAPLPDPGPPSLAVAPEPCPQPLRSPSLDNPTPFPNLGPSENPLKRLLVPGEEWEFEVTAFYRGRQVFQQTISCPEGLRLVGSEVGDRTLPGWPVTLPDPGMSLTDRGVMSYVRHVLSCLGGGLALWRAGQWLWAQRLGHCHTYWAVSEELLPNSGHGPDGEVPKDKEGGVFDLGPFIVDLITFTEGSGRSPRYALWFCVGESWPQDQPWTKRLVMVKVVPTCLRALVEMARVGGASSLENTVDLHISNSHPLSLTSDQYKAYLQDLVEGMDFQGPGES
Technique: protein-binding microarray
Molecule type: double-stranded DNA, one strand shown
Sample: in vitro
Tested at: 2540 nM top
Notes: 60-bp whole probe
Together with: salmon DNA 0.4 mg/ml
Baseline: random background probes
Reading: higher = stronger binding
Measurement: fitted relative affinity
All sequences stand within: GCCTAGCAC … GTCTTGATTCGCTTGACGCTGCTG
TCAGGTTCAGATATAGGACTGTGCTAG: 0.555 z-score
GACGATCTCAGTATCGTGACGTGCTAG: 0.834 z-score
TCATGCTTCAGGTTTACCACTGTGCTA: -0.324 z-score
GACGATTTCAGACCGGAGACGTGCTAG: 0.695 z-score
TCAGTTCTCAGACTGGGACTGTGCTAG: 1.48 z-score
GTAGGTTTCGACACTGGGTTAGTGCTA: 2.63 z-score
GTAGAACTGGGGACTGGATTAGTGCTA: -0.725 z-score
GACGGTCTCGGTCTCGGAACGTGCTAG: 1.57 z-score

Block 3
Target: Histone acetyltransferase KAT6A, both winged helices, GST fusion (KAT6A, Homo sapiens, UniProt Q92794, residues 1-181)
Technique: protein binding microarray
Molecule type: double-stranded DNA, one strand shown
Sample: in vitro
Tested at: not given
Notes: 8-mer, flanks averaged, mean of 2 arrays, mostly near background
Baseline: not given
Reading: higher = stronger binding
Measurement: E-score
Residues (chain): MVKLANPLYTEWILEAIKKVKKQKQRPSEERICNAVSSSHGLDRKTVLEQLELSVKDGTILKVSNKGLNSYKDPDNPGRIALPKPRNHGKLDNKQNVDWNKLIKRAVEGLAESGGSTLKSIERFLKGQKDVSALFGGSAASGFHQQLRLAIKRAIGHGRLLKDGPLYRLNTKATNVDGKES
ACAATAAA: -0.106
GAATAGTC: -0.0766
AGATCCGC: 0.271
AGCAGGGA: -0.24
CCTTAGCA: -0.086
AATGAATG: -0.0578
TACTTCTA: -0.114
CAGGGTAC: -0.0572

Mixed results
O=c1sn(-c2cccc3ccccc23)c(=O)n1Cc1ccccc1  inhibition (Replicase polyprotein 1ab, 3C-like proteinase (rep, Middle East respiratory syndrome-related coronavirus, UniProt K9N7C7); enzyme activity; 10 µM): 22%

A few entries again (block 3):
ACAATAAA: -0.106
GAATAGTC: -0.0766
AGATCCGC: 0.271
